# Assay results collected from several papers.
# Each numbered part is a random draw from the data of one study; scales do not carry over between parts.

# Series 1
# Target: RING finger protein unkempt homolog, zinc fingers 1-6, SBP tag (UNK, Homo sapiens, UniProt Q9C0B0, residues 30-357)
# Sequence of UniProt Q9C0B0 (30-357, looked up): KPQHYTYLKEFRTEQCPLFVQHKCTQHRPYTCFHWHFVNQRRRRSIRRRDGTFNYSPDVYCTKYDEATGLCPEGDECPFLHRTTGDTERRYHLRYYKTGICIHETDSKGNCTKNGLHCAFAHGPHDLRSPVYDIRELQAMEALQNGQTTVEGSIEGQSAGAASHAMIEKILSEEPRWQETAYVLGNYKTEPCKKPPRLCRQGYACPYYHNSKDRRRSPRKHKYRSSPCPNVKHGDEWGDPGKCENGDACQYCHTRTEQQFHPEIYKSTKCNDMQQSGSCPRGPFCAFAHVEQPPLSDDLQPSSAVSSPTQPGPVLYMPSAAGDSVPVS
# Technique: RNA Bind-n-Seq
# Molecule type: RNA
# Matrix: in vitro
# Tested at: 100 nM
# Notes: RNA with constant flanks, vertebrate orthologous sites, ends assumed
# Reference: input RNA pool
# Reading: higher = stronger binding
# Shared flanks, not repeated: GGGAGUUCUACAGUCCGACGAUC … CAACAGAGGAUUGAGCAUCA
Sequence,bound/input enrichment [ratio]
AGUAGUUUUAAGCUUGUUUGCACAGUUCUUUUUUUCCAUUGGAAAUGGAAUUCAUUGCCUUAGGUCUUUUUUAAAUAGUGUAUUAUUAUCGUUGGGGCUGGCUCUAUGCUUGAAAACCAG,4.29
UGUCUGCCUCAUUCUGAAAUGUACACAGUAGACCAUUUGUCAUCCAUGCUGUCCCACAAAUAGUUUUUUGUUUACGAUUUAUGACAGGUUUAUGUUACUUCUAUUUGAAUUUCUAUAUUU,1.23
CAACUCCAUGGUCGAGGGCUCAGAACUCAAAAAGGUCCGCUCCAACUCCAGAAUUUACCAUCGGUACUUUUUGCUGGAUGCCGAUAUGCAGAGCCUGAGAUGGGAGCCGUCUAAGAAGGA,0.173
AUUCACUGUACUGCACACCCAUCCUAGUAUCAACUAGCCACAGUGAUGACUUGUCUGUGCUAGUAGAAAUAUUUGCCGUGACCUUUGAAGUCUGCUUUGUCUGAUCCCUGAAACCAAUCA,0.45
UUUGAGUUAGUUUUUCACAUUUUCUGUAAAUAAUGGAUAAUCUUUUUCAAGUUUACUUUUAAGUGCUGUUUUAACAAUGCGGACAGGCUAUAAAUGUACUUGCUGAAUUCAUUCAUUUUU,0.485
UCUUUAUUCCUUCCUUUUCCUUUUUUCGUUUUUUUCUUUUUUCUUUUUUUUUUUUUUUGGUAGUUGUUGUUACCCACGCCAUUUUACGUCUCCUUCACUGAAGGGCUAGAGUUUUAACUU,2.79
CAUGUCCUUGUUACUGUGGUAUUUAAAAUAUUCACAGUAUCCACCUUUUCCAAAUGAGUCUAGUAAUAUCUUUCUCUUAUCUGUUAUUUAUCAAUUUUUCCCAGUAUUUUUAUACGGAAA,1.34
ACCUAAAAUUAUAGCAAAAGACCAAGCAGUAGCAGUUGUUUUUGUAAAUGUAAAAAUAAUUAGAUGCAAACUGUUUCCUUCAGUUUUAAGAAUAAAAUACCUCAGAGCUAUGUUCACCAG,0.632
UCCAGCCUCAGCUGGCUGUUUCGCAGCAUUCCUUACACAGCUAUUUAACAAGUACAAGUGGAGUUAACUUUCAGGAUACAUCUAGGCACUCAGCAUUAUCCUGCAGUCCAGUUGGAGAUG,0.197
GCAAUGAAAAAGCAGCCCUUCUCCCAACCCCUUUUUCACUAGGAGAUGCAAACGGUACCCUAGAAGAGCAAUUAAACUCGAUAAAUUUAUCUUUUCAGGAUGAUCCAGACUCCAGUACCA,0.48
GGGACGUUUUGAUGUAAAAAUUGAAGUUAAGAGCUGAUCACAAGCACAAAAUCUUUCCCACUAGCCAUUUAAUAAGUUAAAAAAGAUACAAAAACAAAAACCUACUAGUCUUGAACAAAC,2.76

# Series 2
# Target: Histone acetyltransferase KAT6A, winged helix 1, GST fusion (KAT6A, Homo sapiens, UniProt Q92794, residues 1-85)
# Technique: protein binding microarray
# Molecule type: double-stranded DNA, one strand shown
# Matrix: in vitro
# Tested at: not given
# Notes: 8-mer, flanks averaged, mean of 2 arrays, mostly near background
# Reference: not given
# Reading: higher = stronger binding
# Residues (chain): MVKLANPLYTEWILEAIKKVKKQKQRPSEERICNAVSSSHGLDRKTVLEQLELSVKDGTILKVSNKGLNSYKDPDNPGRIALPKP
Sequence,E-score
AGATGGTA,-0.191
CCAACCGG,0.0276
TATTCGCA,-0.0192
AAGCCACA,-0.178
CCTTAGCC,0.054
CCCGTCGG,0.486
CGCATGTC,0.206
CACCCCAG,-0.133
AGGGCGTG,0.127
ACACTTTG,-0.195
GCTCAGCC,0.0777
TAGCGCCA,0.23
AAAGTAGT,-0.112
AGTTGACA,-0.235
AGAAGCGC,0.299
ACAGACTG,-0.181
CATTCAGG,-0.124
AAGGGCAG,-0.0997
GCTCGCGA,0.165
CGAATTGA,-0.167
CTTAGTGC,-0.2
GGGTCGAA,-0.113
ATGATAAT,-0.0954
GCGAATTA,0.145
ACGTACGC,0.248

# Series 3
# Target: Sal-like protein 4, full length isoform A (SALL4, Homo sapiens, UniProt Q9UJQ4, residues 1-1053)
# Sequence of UniProt Q9UJQ4 (whole entry, looked up): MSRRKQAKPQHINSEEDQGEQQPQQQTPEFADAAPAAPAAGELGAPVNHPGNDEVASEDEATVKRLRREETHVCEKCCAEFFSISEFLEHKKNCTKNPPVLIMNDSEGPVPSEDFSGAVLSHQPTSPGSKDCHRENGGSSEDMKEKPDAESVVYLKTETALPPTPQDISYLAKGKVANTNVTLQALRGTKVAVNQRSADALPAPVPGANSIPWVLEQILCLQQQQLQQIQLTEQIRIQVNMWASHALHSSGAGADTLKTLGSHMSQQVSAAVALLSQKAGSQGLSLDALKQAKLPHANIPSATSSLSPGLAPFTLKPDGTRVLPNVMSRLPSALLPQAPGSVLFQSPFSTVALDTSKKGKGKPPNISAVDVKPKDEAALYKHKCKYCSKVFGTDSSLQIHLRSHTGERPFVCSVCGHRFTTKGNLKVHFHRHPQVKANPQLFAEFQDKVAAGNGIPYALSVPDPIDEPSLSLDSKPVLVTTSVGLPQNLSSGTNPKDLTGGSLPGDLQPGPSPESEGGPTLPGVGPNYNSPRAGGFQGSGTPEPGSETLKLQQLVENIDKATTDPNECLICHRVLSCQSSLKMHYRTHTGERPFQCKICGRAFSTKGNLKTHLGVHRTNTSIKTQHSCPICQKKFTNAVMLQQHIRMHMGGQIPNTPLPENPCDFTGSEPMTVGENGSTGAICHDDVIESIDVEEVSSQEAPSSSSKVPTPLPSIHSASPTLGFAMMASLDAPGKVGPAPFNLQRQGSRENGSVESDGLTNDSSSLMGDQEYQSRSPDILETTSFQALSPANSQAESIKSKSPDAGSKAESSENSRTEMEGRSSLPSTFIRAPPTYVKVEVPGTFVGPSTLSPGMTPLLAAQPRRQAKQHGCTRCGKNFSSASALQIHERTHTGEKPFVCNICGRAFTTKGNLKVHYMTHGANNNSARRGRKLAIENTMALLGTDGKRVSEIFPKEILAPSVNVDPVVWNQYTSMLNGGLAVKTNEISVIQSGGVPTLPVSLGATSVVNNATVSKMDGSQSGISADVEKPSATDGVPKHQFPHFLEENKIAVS
# Technique: universal PBM
# Molecule type: double-stranded DNA, one strand shown
# Matrix: in vitro
# Tested at: 600 nM
# Notes: 8-mer, flanks averaged, mean of replicates
# Reading: higher = stronger binding
Sequence,E-score
AAGGCATG,-0.0335
GAACTACA,-0.0862
GGATACCA,-0.153
ACTTGTAG,0.218
GTTTTGCA,0.216
ACTCACCC,-0.167
AGCTCCAG,-0.246
CGCAGAAA,0.000425
ACCGTAGA,0.0517
CTAAGCAA,-0.0406
CCGTGGCC,-0.368
GTTGATTA,0.25
GAGATACC,-0.0381
ATCCTGTC,0.0718
CATGAGGG,-0.0863
CTTATGTC,0.0251
AACTTTGT,0.141
CTAAGAAA,0.144
ACTACGAC,-0.105
AAGTCTAC,-0.0858
GCCTCTAA,-0.124
AGACGCTA,-0.107
CCTTCACG,-0.145
AGATGCCT,0.0321
CTTAGCTA,0.0898

# Series 4
# Target: Phosphate system positive regulatory protein PHO4, full length, GST-tagged (PHO4, Saccharomyces cerevisiae, UniProt P07270, residues 1-312)
# Technique: competition protein-binding microarray
# Molecule type: double-stranded DNA, one strand shown
# Matrix: in vitro
# Tested at: 2 µM
# Notes: whole 60-bp probe, lowest competitor level
# Together with: Cbf1 competitor, 0.05 µM
# Reading: higher = stronger binding
# Shared flanks, not repeated: … GTCTTGATTCGCTTGACGCTGCTG
# Target sequence (chain): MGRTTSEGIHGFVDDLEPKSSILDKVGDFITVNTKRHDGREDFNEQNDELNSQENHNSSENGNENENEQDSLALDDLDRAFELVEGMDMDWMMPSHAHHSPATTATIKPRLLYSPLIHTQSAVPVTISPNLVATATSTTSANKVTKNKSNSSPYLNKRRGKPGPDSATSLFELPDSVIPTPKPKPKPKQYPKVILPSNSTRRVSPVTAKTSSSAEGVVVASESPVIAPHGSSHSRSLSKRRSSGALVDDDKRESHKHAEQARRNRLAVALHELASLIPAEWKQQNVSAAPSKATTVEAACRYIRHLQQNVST
Sequence,fluorescence intensity [a.u.]
TGATGACGCCACCATCACGTTGCGACAGCGTCTGCT,11100
CACAATGTGCGGAATCACCTGCCTGTTTCAATAATG,6780
TGGTGGAGTTTTACCCACGTGATGGAAGACTCCTGG,15000
TCAAGGCGGACATACTTCGTGATGGAAGCTCATGTT,5080
CAGATGTTCGTGTAATGGTACCCGACACTCGATGAG,4700
AAAGCGGTAATTTGCATTGTGGGTGCAGATATCTAT,5080
CGGGAACACTACGCCAACGTGATGGGCAATTGTGCT,9160
CGGAGAACAAAAGTAGGCGTGGGTAGTGAAGATCTT,7220
CGTCCTAGTGATTGGTCGGTGGGTGCCATGAGGAAG,6240
TTGGAACCCATACCTCACGTTTGAAATTGACACCCG,5960
CCGTCGCCACAGAAGCGCGTGGACGCAGGATCGCGC,9860
TTGCTGTTTCTAAGAAGCGTGGGACAACGCAATGAA,8600
GTCTTGTCTCATTGGCTAGTGGGTGTCCCCACTTCA,4450
GTCTTGTCTCATTGTCCTGTGGGTGTCCCCACTTCA,4730
CTTCTGTAAATTTGTCACGGCACTTGACGCGCCCCG,4010
AAATTACTAAGTTGGACAGTGGGTGACGCCGTATGA,4180
TGTATAGTAATTTGCCACGTGGGACGCTTAAGAAAT,20600
CATACCCAACCTTGGCTCGTGGGTGAAGATATTTGT,12300
ACTCCCTGGAAAAAGCACGTGCCGAGCTGGATCTGC,20500
CTCTTTGGTCTTGGCCAGAGGTCCCAGAGTCGAAAA,2370
AAATTACTAAGTTGTCACGGCACTTACCCCGTATGA,3780
TGCGCAACAACTTGACTTGTGGGTGTATGTCTAGAA,5020
TTTGGCAAATTGACTCACGTGAGGACGTCTGCTAAC,12300
TTTCTTCGACACCATCACGTAAAACAACAACCAGGA,5310
GTCTTGTCTCATTGGTCTGTGGGTGTCCCCACTTCA,4230

# Series 5
# Target: Interferon regulatory factor 3, full length, phosphomimetic (IRF3, Homo sapiens, UniProt Q14653, residues 1-427, S386D/S396D/S398D/S402D/T404D/S405D)
# Technique: protein-binding microarray
# Molecule type: double-stranded DNA, one strand shown
# Matrix: in vitro
# Tested at: 2540 nM top
# Notes: 60-bp whole probe
# Together with: salmon DNA 0.4 mg/ml
# Reference: random background probes
# Reading: higher = stronger binding
# Shared flanks, not repeated: GCCTAGCAC … GTCTTGATTCGCTTGACGCTGCTG
# Target sequence (chain): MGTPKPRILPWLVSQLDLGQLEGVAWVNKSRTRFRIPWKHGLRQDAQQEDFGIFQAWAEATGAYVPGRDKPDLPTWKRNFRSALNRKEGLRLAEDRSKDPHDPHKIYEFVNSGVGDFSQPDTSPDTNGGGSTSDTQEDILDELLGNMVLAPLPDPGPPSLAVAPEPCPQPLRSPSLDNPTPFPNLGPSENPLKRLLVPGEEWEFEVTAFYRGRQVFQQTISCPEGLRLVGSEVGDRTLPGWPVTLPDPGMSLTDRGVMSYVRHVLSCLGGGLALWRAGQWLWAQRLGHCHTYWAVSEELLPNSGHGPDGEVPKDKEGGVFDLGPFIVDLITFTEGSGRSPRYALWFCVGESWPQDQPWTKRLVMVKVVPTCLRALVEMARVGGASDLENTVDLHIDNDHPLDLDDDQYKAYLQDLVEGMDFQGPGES
Sequence,fitted relative affinity [z-score]
GACGATTTCAGATTGGAGACGTGCTAG,1.88
TTCATTATTGCTTCCTCTTTGTGCTAG,0.698
GTCGGTATCCTTCTCCTGACGTGCTAG,8.28
GACGGTTTCCTTCTCCTGGCGTGCTAG,10.1
TCCATGACCTACCCTGCGTTGTGCTAG,-0.51
CTAGAACTGGGGTTTCGATTAGTGCTA,1.55
TCAACAGTTTTATTTTAGACTGTGCTA,1.98
TTAGAACTGGGGTATCGAGTAGTGCTA,-0.864
TTAGATCTCAATTTCGATTAGTGCTAG,1.47
GACGGTTTCGGACTGCGGACGTGCTAG,4.6
TTAGTTTCCCTTTTCCTTTAGTGCTAG,12.9
TTAGGTTTCACTTTCCAAAAGTGCTAG,9.13
GACCGTTTCGGGTATCGGGACGTGCTA,4.52
TTACGTTTCGGTCTCGGTTAGTGCTAG,7.91
TTGGGACTGGGGTTTCGGTTAGTGCTA,2.05
GACGATATCAGACTAGAGACGTGCTAG,0.63
TAAGGACTGGACTTTCGGTTAGTGCTA,1.11
TCACTTTTTTGTTCCACACTGTGCTAG,1.97
GACGCACTGGGACTGGGGACGTGCTAG,-0.696
GACGGTATCGTCACTGGGGACGTGCTA,0.271
TTATGTATCGGTATCGGTTAGTGCTAG,5.23
GACGAACTGCGTCTCGAGACGTGCTAG,-0.307
TTAGATTTCAGTCTCGAATAGTGCTAG,2.46
GACGTACTGAGTCTCGAGACGTGCTAG,-0.198
GACGGTATCGGGCATCGGGACGTGCTA,0.36

# For quick reference, copied from above (series 3):
Sequence,E-score
ATCCTGTC,0.0718
CTTATGTC,0.0251
AGATGCCT,0.0321
CGCAGAAA,0.000425
ACTCACCC,-0.167
GCCTCTAA,-0.124
AGCTCCAG,-0.246
